Measured values pooled from the literature.
± marks the error that the study gave.

Compound	cell line	assay	conditions	scale	quantity	value
CC1(C)OCCn2c1nc1c(N3CCOCC3)nc(-c3cnc(N)nc3)nc12	HD-MB03	cell growth	168 h, DMSO		IC50	0.339 µM
O=C(O)COCC(=O)O	hepatocytes, iPSC-derived, W2 line	cell viability, RealTime-Glo MT	72 h, differentiation day 23		IC50	8440 µM
COc1ccc(NC(=S)N/N=C/c2cccc3cc4ccccc4nc23)cc1	HeLa	crystal violet staining	48 h		concentration causing significant viability reduction	≥ 10 µM
C=Cc1c2[n-]c(c1C)/C=c1\[n-]/c(c(C)c1C=C)=C\c1[n-]c(c(CCC(=O)O)c1C)/C=c1\[n-]c(c(C)c1CCC(=O)O)=C2.[Sn+4]	SH-SY5Y	RNA-seq, refers to: FAM83G mRNA	5 µM, 5 h	relative to: untreated cells	fold change	1.78
CC/C(=N\NC(=O)NCc1cccc(O)c1)c1ccc(O)c(C)c1O	SK-OV-3	Western blot	10 µM, 6 h, 2D culture, unit not given	relative to: DMSO	LATS band intensity	1 ± 0.41
Cn1cnc2c(F)c(Nc3ccc(Br)cc3F)c(C(=O)NOCCO)cc21	A-375		0.07813 µM, 72 h		viability	87.2%
O=C(/C=C/C=C/C=C/C1CCCCC1)NC1=C[C@@](O)(/C=C/C=C/C=C/C(=O)NC2=C(O)CCC2=O)[C@@H]2O[C@@H]2C1=O	SK-MEL-24	cell growth, CellTiter-Glo	78 h		GI50	28 µM
Cn1cc(-c2ccc(-c3cncc(Cl)c3N3CCC4(CCNC4=O)CC3)cc2)cn1	COLO 205	gene expression, microarray, refers to: PCK1 mRNA	concentration not given, 6 h	relative to: untreated cells	log2 fold change	1.9
CCn1cc(-c2cc(Cn3ccnc3)cc3c2CCN([C@H](c2cc(OC)ccn2)C2CC2)C3=O)c(C(F)(F)F)n1	SCC-9	cell growth, inhibitor	120 h		EC50	> 30 µM
CCCc1nc(C)c2c(O)nc(-c3cc(S(=O)(=O)N4CCN(CC)CC4)ccc3OCC)nn12	primary rat hippocampal/cortical neuron-glia cultures		1 µM, with: 1 µM α-synuclein oligomers		reversal of trafficking deficit	-9.52%
CCN(CCO)CCCC(C)Nc1ccnc2cc(Cl)ccc12 (centres unmarked)	human PBMC	qRT-PCR, refers to: IRF7 mRNA	1000 nM, with: ssRNA		inhibition	6 ± 6%
CC(=O)c1ccc(-c2cccc(NC(=O)CCc3cccc4c3B(O)OC4)c2)cc1	HCT-116 CPSF3 mutant clones			relative to: parental HCT-116	resistance	≥ 32 fold
Cn1nnc2c(C(N)=O)ncn2c1=O	HD-MB03		168 h		IC50	inactive
Cc1cccc(-c2[nH]c(CNc3ccccc3F)nc2-c2ccc3ncnn3c2)n1	MM1.S pomalidomide-resistant	XTT	4 µM	relative to: untreated	viability	16%
Cc1[nH]c2ccccc2c1CCNCc1ccc(/C=C/C(=O)NO)cc1	HD-MB03	cell growth	168 h, DMSO		IC50	0.0161 µM
COc1ccc(-n2nc(C(C)=O)s/c2=N\N=C(/C)c2ccc(NC(=O)c3ccccc3)cc2)cc1	MCF7		5 µM		toxicity	97.5%
Cc1cnc(NC2CCOCC2)nc1-n1cnc(C(=O)NC(CN)c2cc(F)cc(Cl)c2)c1 (centres unmarked)	A-375	flow cytometry	1 µM, 48 h		G2 phase cells	1.3%
Cn1cc(Nc2nccc(-c3ccc4c(c3)CN(C3COC3)CC[C@H]4NC(=O)c3cn(C(C)(C)C)nn3)n2)cn1	mouse splenic B cells	refers to: Dolichyl-diphosphooligosaccharide biosynthesis	30 mg/kg, IgD-activated in vivo	relative to: vehicle, direction not given	pathway activation z-score	-1
CCn1cc(-c2cc(Cn3ccoc3=N)cc3c2CCN([C@@H](C)c2cc(OC)ccn2)C3=O)c(C(F)(F)F)n1	BXPC-3	cell growth, inhibitor	120 h		EC50	1.31 µM
CC(C)C[C@H](NC(=O)[C@H](Cc1ccccc1)NC(=O)c1cnccn1)B(O)O	HD-MB03	cell growth	168 h, DMSO		IC50	0.00723 µM
